Experimental data from different studies.
Parts stem from different laboratories: compare values within a part only. Positions count from the first letter of the parent shown.

Study 1
Target: Hepatocyte nuclear factor 3-alpha (Foxa1, Mus musculus, UniProt P35582, residues 1-468, full length assumed)
Sequence of UniProt P35582 (whole entry, looked up): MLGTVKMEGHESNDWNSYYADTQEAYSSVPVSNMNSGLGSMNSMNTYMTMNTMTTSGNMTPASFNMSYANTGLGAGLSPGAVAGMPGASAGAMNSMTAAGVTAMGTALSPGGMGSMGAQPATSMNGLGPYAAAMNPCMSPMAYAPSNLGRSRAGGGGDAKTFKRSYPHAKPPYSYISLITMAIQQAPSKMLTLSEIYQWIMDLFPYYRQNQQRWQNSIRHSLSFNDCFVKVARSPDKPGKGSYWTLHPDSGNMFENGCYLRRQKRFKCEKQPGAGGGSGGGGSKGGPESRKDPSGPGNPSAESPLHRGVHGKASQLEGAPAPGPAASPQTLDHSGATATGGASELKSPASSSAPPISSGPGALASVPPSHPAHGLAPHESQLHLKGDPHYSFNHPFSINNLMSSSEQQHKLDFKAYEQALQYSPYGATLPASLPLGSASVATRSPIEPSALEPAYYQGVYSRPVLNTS
Technique: EMSA with sequencing
Molecule type: double-stranded DNA, one strand shown
Medium: in vitro
Tested at: 10 and 20 nM
Setting: whole designed probe, mean of two concentrations, ends assumed
Baseline: negative control set to 0
Direction: higher = stronger binding
Measurement: normalised bound fraction
Constant ends, left off below: GTGAGCGGTGCCCATTGATGGGGAAC … TTTCACTGGGATCGTGGGGAC
Strand = ATCTTCCCCCTCTTCCTTGCCCCACCAGCTCACCTTCCCGGGTTATTTGCACAAAGGAAAATAAATAAAGCCGGCATTCGTTAACCCTCTTCTGGCGCAAACTGCTGTTTGCTCTGGATGAATCATGGTCCTTTGGCGACGCCAGGCTCCGGGAGAGCAAAGCACCGTGTCAGGGCCATGATCCGGGCTCGCC; result = 0.355 ratio
Strand = ATCTTCCCCCTCTTCCTTGCCCCACCAGCTCACCTTCCCGGGTTGTTTACTTTGAGGAAAATAAATAAAGCCGGCATTCGTTAACCCTCTTCTGGCGCAAACTGCTGTTTGCTCTGGATGAATCATGGTCCTTTGGCGACGCCAGGCTCCGGGAGAGCAAAGCACCGTGTCAGGGCCATGATCCGGGGTGGCC; result = 0.363 ratio
Strand = TGTGCCTGAGCAAGCTGAGATTGCTCATCGTCTGGACAAACCTTGTTGAATCTTGTCAGGAAACTTTTTACATTGCTCCTTGGCAAATAGTGCAAATTACTTTGTTTAAATACCTGCAGGAAATAACACAATTGAGCAAACTAGAGACAAGGACAGTTAGTGTATTGAGTATTTTTTTCTCAATTTATTATGC; result = 0.193 ratio
Strand = AAAGATTACACTTTTAAAAACTACTCTTTGATTTAAAAAATTAACTCTAAATGTATGAAAGTCTATTTTGAGTATTCAGAGCAGGTTACGGGCAAGATTACATAGTTCTGGGTACAGGGATAATTTAAGAATCAGATTTTTCTGTCATATATAACAATTTTTGAAACCTGCAAATCTGCGTGAGTTACAAGAT; result = -0.0702 ratio
Strand = TTTGAAATTTAGGAAAAGTTAATATGAATGAGAGAAAAATAACCAAAAAGAAATAGCAATTATTCCTTACTAATGTTATTTTTCTGTCTGCAAAGTAATCTTAGTAAAAGAAATTTTTCACTTTAAGTTATGAAAGTTGACACTATTATCTATAATTTTTACATGTGCCTCTATTATATGTCCTCTAGCCTTT; result = 0.00653 ratio

Study 2
Target: Histone acetyltransferase KAT6A, winged helix 1, GST fusion (KAT6A, Homo sapiens, UniProt Q92794, residues 1-85)
Technique: protein binding microarray
Molecule type: double-stranded DNA, one strand shown
Medium: in vitro
Tested at: not given
Setting: 8-mer, flanks averaged, mean of 2 arrays, mostly near background
Baseline: not given
Direction: higher = stronger binding
Measurement: E-score
Target sequence (chain): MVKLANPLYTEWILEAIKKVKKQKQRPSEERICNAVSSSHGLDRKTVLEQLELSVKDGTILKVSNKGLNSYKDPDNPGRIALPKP
Strand = AACTGTAA; result = -0.0436
Strand = CGAAACGC; result = 0.16
Strand = CACCGACA; result = 0.0463
Strand = ACACAAGA; result = -0.282
Strand = GAGGGCGC; result = 0.241
Strand = CGGAGTTC; result = 0.217
Strand = GACGTCTC; result = -0.00549
Strand = ATTTAAAA; result = 0.00103
Strand = ACTATGTA; result = -0.191
Strand = GAGGGGCC; result = -0.0508
Strand = AAGCGCGT; result = 0.39
Strand = CAGGGTCC; result = -0.107
Strand = AAGAGTCC; result = -0.16
Strand = CATGTTGG; result = -0.0143
Strand = GTTAAGAA; result = -0.131
Strand = CGGCGAAC; result = 0.38
Strand = GCCGTGGA; result = 0.365
Strand = ACTGAAAA; result = -0.153

Study 3
Target: Myc proto-oncogene protein, bHLH-zipper, MAX partner unstated (MYC, Homo sapiens, UniProt P01106, residues 368-449)
Sequence of UniProt P01106 (368-449, looked up): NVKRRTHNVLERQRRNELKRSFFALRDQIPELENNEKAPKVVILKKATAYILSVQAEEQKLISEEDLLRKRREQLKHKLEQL
Technique: protein-binding microarray
Molecule type: double-stranded DNA, one strand shown
Medium: in vitro
Tested at: not given
Setting: k-mer, scored over probes, only values ≥0.25
Direction: higher = stronger binding
Measurement: E-score
Strand = ACATGACA; result = 0.339
Strand = CGTGACGC; result = 0.299
Strand = AACCACAC; result = 0.306
Strand = CCGACCAC; result = 0.252
Strand = AGTCACAT; result = 0.296
Strand = ACGCCCCT; result = 0.261
Strand = TGCGCACA; result = 0.323
Strand = GCGAGGTA; result = 0.314
Strand = ACGTGCCC; result = 0.432
Strand = GCCACGCC; result = 0.431
Strand = CGCGCCCA; result = 0.279
Strand = AGTCCACG; result = 0.387
Strand = AGGGTGGG; result = 0.279
Strand = CGTCGTGC; result = 0.28
Strand = ACGTGTGG; result = 0.443
Strand = CATGTTCC; result = 0.299
Strand = CACGAGCG; result = 0.333
Strand = ACACGTTC; result = 0.316
Strand = ACCATCTG; result = 0.266
Strand = CACGCACG; result = 0.424
Strand = ACACGAGT; result = 0.372
Strand = AGGTGTGC; result = 0.33
Strand = AGCATGGA; result = 0.363
Strand = AGCGTGCC; result = 0.353
Strand = CACCCACG; result = 0.432

Study 4
Target: Transcription factor SOX-2, HMG box (Sox2, Mus musculus, UniProt P48432, residues 41-119)
Sequence of UniProt P48432 (41-119, looked up): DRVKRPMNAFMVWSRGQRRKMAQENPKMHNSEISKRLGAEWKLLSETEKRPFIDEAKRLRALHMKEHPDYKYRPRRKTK
Technique: Spec-seq
Molecule type: double-stranded DNA, one strand shown
Medium: in vitro
Tested at: not given
Setting: whole probe, mean of replicates
Baseline: not given
Direction: lower = stronger binding
Measurement: relative binding energy
Constant ends, left off below: GAGTCGTCTCGTCAGCAC … CCGTAGAGCACTCAGGTC
Strand = GACGGTT; result = 1.35 ln ratio
Strand = CATGTAA; result = 0.0727 ln ratio
Strand = CATACAC; result = -0.511 ln ratio
Strand = CATACAA; result = -1.21 ln ratio
Strand = CATACCC; result = 0.521 ln ratio
Strand = TTATGTT; result = -0.384 ln ratio
Strand = ACATGTT; result = 0.0808 ln ratio
Strand = GTTTGTT; result = -1.17 ln ratio
Strand = CTCGGTT; result = 1.21 ln ratio
Strand = AAGCGTT; result = 0.433 ln ratio
Strand = CCTTGTT; result = -1.12 ln ratio
Strand = TGGGGTT; result = 1.18 ln ratio
Strand = ATGTGTT; result = -0.0471 ln ratio
Strand = CATAGCC; result = -0.232 ln ratio
Strand = CATCAAA; result = 0.0953 ln ratio
Strand = GAGCGTT; result = 1.16 ln ratio
Strand = CGGAGTT; result = 1.36 ln ratio
Strand = CGACGTT; result = 1.36 ln ratio
Strand = CATGACT; result = 0.346 ln ratio
Strand = CATCCAC; result = 0.984 ln ratio
Strand = TCGAGTT; result = 1.13 ln ratio

Study 5
Target: CCNE2, cyclin fold, Cln2 fusion (human)
Technique: yeast growth competition, sequencing
Medium: yeast
Setting: weak parent motif
Baseline: not given
Direction: higher = stronger binding
Measurement: normalised enrichment score
Parent: HASPIN docking peptide (human); ASLRSVLFGLMNS; partner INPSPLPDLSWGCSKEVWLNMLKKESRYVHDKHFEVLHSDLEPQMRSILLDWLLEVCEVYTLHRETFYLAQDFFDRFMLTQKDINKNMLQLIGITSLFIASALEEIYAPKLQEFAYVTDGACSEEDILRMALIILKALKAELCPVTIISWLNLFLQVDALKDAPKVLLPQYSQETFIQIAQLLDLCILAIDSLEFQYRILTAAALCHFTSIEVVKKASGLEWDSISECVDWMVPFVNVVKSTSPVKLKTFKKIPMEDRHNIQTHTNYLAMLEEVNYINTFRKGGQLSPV
Change = ASLRAVLFGLMNS [S5A]; result = 0.711
Change = ASARSVLFGLMNS [L3A]; result = 0.0443
Change = ASLRSVLFALMNS [G9A]; result = 0.603
Change = ASLRSVLFGLMAS [N12A]; result = 1.1
Change = ASLRSVLFGAMNS [L10A]; result = 0.996
Change = ASLRSVLFGLMNA [S13A]; result = 0.538

Some of these lines once more (study 3):
Strand = CACCCACG; result = 0.432
Strand = AGCGTGCC; result = 0.353
Strand = CGTCGTGC; result = 0.28
Strand = ACCATCTG; result = 0.266
Strand = AACCACAC; result = 0.306
Strand = GCCACGCC; result = 0.431
Strand = ACGCCCCT; result = 0.261
Strand = AGCATGGA; result = 0.363
Strand = CACGCACG; result = 0.424
Strand = ACATGACA; result = 0.339
Strand = CGCGCCCA; result = 0.279
